Measurements pooled from the literature.
Protocols differ between the studies behind these lines.
Organism: Enterococcus faecalis

The MIC of `COc1cc(Cc2cnc(N)nc2N)cc(/C=C/C(=O)N2N=Cc3ccccc3C2C=C(C)C)c1OC` (centres unmarked) is reported as 0.25 µg/mL (microbial growth, broth dilution; ATCC29212; pH 5.8).
`C/C(=N/NC(=N)N)c1nnn(-c2ccc(C#Cc3ccsc3)cc2)c1C` gave an MIC of greater than 64 µg/mL (microbial growth, broth dilution; ATCC51299).
For `COc1c(NC(=O)c2ccc(NC(=O)c3ccc(NC(=O)[C@H](CC#N)NC(=O)c4ccc(NC(=O)/C(C)=C/c5ccc(O)cc5)cc4)cc3)c(OC)c2O)ccc(C(=O)O)c1O`, the MIC was 4 µg/mL (microbial growth; ATCC29212).
`Oc1c(Br)ccc2cccnc12` gave an MIC of 35.7 µM (microbial growth, agar dilution; ATCC29212).
`COc1cc(Cc2cnc(N)nc2N)cc(/C=C/C(=O)N2N=Cc3ccccc3C2CC(C)C)c1OC` (centres unmarked) gave an MIC of 0.125 µg/mL (microbial growth, broth dilution; ATCC29212).
For `COc1ccc2c(c1CC=C(C)C)O[C@H]1c3cc(CC=C(C)C)c(O)cc3OC[C@@H]21`, the MIC was 128 µg/mL (ATCC 29212).
`CCCCCCCCCCCCCCCCCCCCCCSCC1OC(OC2C(N)CC(N)C(OC3OC(CN)C(O)CC3N)C2O)C(O)C(N)C1O` (centres unmarked) has an MIC of greater than 150 µg/mL (ATCC 29212).
`Oc1c(Br)cc(Br)c2nc3cc(F)ccc3nc12` has an MIC of 6.25 µM (microbial growth, broth dilution; OG1RF).
The MIC of `CNC(CC(C)C)C(=O)NC1C(=O)NC(CC(N)=O)C(=O)NC2C(=O)NC3C(=O)NC(C(=O)NC(C(=O)NCCCCCCNC(=N)N)c4cc(O)cc(O)c4-c4cc3ccc4O)C(O)c3ccc(c(Cl)c3)Oc3cc2cc(c3OC2OC(CO)C(O)C(O)C2OC2CC(C)(N)C(O)C(C)O2)Oc2ccc(cc2Cl)C1O` (centres unmarked) is reported as 4 µg/mL (broth microdilution; ATCC BAA-2573 VanA).
For `COCCNCc1cc(N(C)C)c2c(c1O)C(=O)C1=C(O)[C@]3(O)C(=O)C(C(N)=O)=C(O)[C@@H](N(C)C)[C@@H]3C[C@@H]1C2`, the MIC was 0.5 µg/mL (JH2-2(pMV158), Tet L efflux).
`CNC(CC(C)C)C(=O)NC1C(=O)NC(CC(N)=O)C(=O)NC2C(=O)NC3C(=O)NC(C(=O)NC(C(=O)NCCCCNC(=N)N)c4cc(O)cc(O)c4-c4cc3ccc4O)C(O)c3ccc(c(Cl)c3)Oc3cc2cc(c3OC2OC(CO)C(O)C(O)C2OC2CC(C)(N)C(O)C(C)O2)Oc2ccc(cc2Cl)C1O` (centres unmarked) gave an MIC of 16 µg/mL (broth microdilution; BM 4166 VanA).
With `C/C(=N/NC(=N)N)c1nnn(-c2ccc(C#CC(C)(C)C)cc2)c1C` the MIC was 8 µg/mL (microbial growth, broth dilution; ATCC51299).
The MIC of `COc1cc(Cc2cnc(N)nc2N)cc(/C=C/C(=O)N2N=Cc3ccccc3C2c2cc(C)cc(C)c2)c1OC` (centres unmarked) is reported as 0.25 to 0.5 µg/mL (microbial growth, broth dilution; ATCC29212).
`CNC(CC(C)C)C(=O)NC1C(=O)NC(CC(N)=O)C(=O)NC2C(=O)NC3C(=O)NC(C(=O)NC(C(=O)NCCCNC(=N)N)c4cc(O)cc(O)c4-c4cc3ccc4O)C(O)c3ccc(c(Cl)c3)Oc3cc2cc(c3OC2OC(CO)C(O)C(O)C2OC2CC(C)(NCc3ccc(-c4ccc(Cl)cc4)cc3)C(O)C(C)O2)Oc2ccc(cc2Cl)C1O` (centres unmarked) gave an MIC of 0.04 µg/mL (VanB ATCC 51299).
`COC1CCN(Cc2cc(N(C)C)c3c(c2O)C(=O)C2=C(O)[C@]4(O)C(=O)C(C(N)=O)=C(O)[C@@H](N(C)C)[C@@H]4C[C@@H]2C3)CC1` gave an MIC of 1 µg/mL (JH2-2(pMV158), Tet L efflux).
With `CNC(CC(C)C)C(=O)NC1C(=O)NC(CC(N)=O)C(=O)NC2C(=O)NC3C(=O)NC(C(=O)NC(C(=O)NCCCNC(=N)N)c4cc(O)cc(O)c4-c4cc3ccc4O)C(O)c3ccc(c(Cl)c3)Oc3cc2cc(c3OC2OC(CO)C(O)C(O)C2OC2CC(C)(N)C(O)C(C)O2)Oc2ccc(cc2Cl)C1O` (centres unmarked) the MIC was 8 µg/mL (VanB ATCC 51299).
`COc1cc(Cc2cnc(N)nc2N)cc(/C=C/C(=O)N2N=Cc3ccccc3C2C2CCCCC2)c1OC` (centres unmarked) has an MIC of 0.25 to 0.5 µg/mL (microbial growth, broth dilution; ATCC29212).
The MIC of `Cc1cc(/C=C2\Sc3ccccc3N2CCCN2CCCC2)c2ccccc2[n+]1C` is reported as 64 µg/mL (microbial growth, broth dilution; ATCC29212).
The MIC of `COc1cc(Cc2cnc(N)nc2N)cc(/C=C/C(=O)N2N=Cc3ccccc3C2c2cccc(F)c2)c1OC` (centres unmarked) is reported as 0.125 µg/mL (microbial growth, broth dilution; ATCC29212).
`CC(C)C(O)C(NC(=O)[C@H](Cc1ccc(O)cc1)NC(=O)C(Cc1ccc(O)cc1)[N+](C)(C)C)C(=O)N[C@@H](C)C(=O)O` (some centres unmarked) gave an MIC of greater than 100 µM (CLSI broth microdilution; ATCC 19433).
For `c1ccc(CN2CCOCCOCCN(CCCCCCCCCCN3CCOCCOCCN(CCCCCCCCCCN4CCOCCOCCN(Cc5ccccc5)CCOCCOCC4)CCOCCOCC3)CCOCCOCC2)cc1`, the MIC was 6 µM (microbial growth).
`CCc1[nH]c(C(=O)N[C@@H]2CCN(c3nnc(C(C)(C)O)s3)C[C@@H]2OC)nc1Cl` has an MIC of 0.5 µg/mL (ATCC 51299).
With `CN(C)c1cc(CN2CCCCC2)c(O)c2c1C[C@H]1C[C@H]3[C@H](N(C)C)C(O)=C(C(N)=O)C(=O)[C@@]3(O)C(O)=C1C2=O` the MIC was 0.125 µg/mL (JH2-2(pMV158), Tet L efflux).
`Oc1c(Cl)cc(Cl)c2cccnc12` gave an MIC of 37.4 µM (microbial growth, agar dilution; ATCC33186).
`CC(C)CNCc1cc(N(C)C)c2c(c1O)C(=O)C1=C(O)[C@]3(O)C(=O)C(C(N)=O)=C(O)[C@@H](N(C)C)[C@@H]3C[C@@H]1C2` has an MIC of 1 µg/mL (JH2-2(pMV158), Tet L efflux).
For `CCC(CC)C1c2ccccc2C=NN1C(=O)/C=C/c1cc(Cc2cnc(N)nc2N)cc(OC)c1OC` (centres unmarked), the MIC was 0.5 µg/mL (microbial growth, broth dilution; ATCC29212).
With `COc1cccc(C2Nc3ccccc3C3=[O+][Cu-2]4([Cl])[O]c5c(cccc5OC)C=[N+]4N32)c1O` (centres unmarked) the MIC was greater than 256 µg/mL (broth microdilution; ATCC 29213; 24 h).
With `COCCOC(=O)NCc1cc(N(C)C)c2c(c1O)C(=O)C1=C(O)[C@]3(O)C(=O)C(C(N)=O)=C(O)[C@@H](N(C)C)[C@@H]3C[C@@H]1C2` the MIC was 4 µg/mL (JH2-2(pMV158), Tet L efflux).
For `COc1cc(Cc2cnc(N)nc2N)cc(/C=C/C(=O)N2N=Cc3ccccc3C2c2ccccc2)c1OC` (centres unmarked), the MIC was 0.06 to 0.125 µg/mL (microbial growth, broth dilution; ATCC29212; pH 7).
`CN(C)c1cc(CNCCC(C)(C)C)c(O)c2c1C[C@H]1C[C@H]3[C@H](N(C)C)C(O)=C(C(N)=O)C(=O)[C@@]3(O)C(O)=C1C2=O` has an MIC of 1 µg/mL (JH2-2(pMV158), Tet L efflux).
`COc1c2c(cc3c1[C@@H]1Oc4c(ccc(O)c4CC=C(C)C)[C@@H]1CO3)OC(C)(C)C=C2` gave an MIC of 128 µg/mL (ATCC 29212).
`CC(=O)NCc1cc(N(C)C)c2c(c1O)C(=O)C1=C(O)[C@]3(O)C(=O)C(C(N)=O)=C(O)[C@@H](N(C)C)[C@@H]3C[C@@H]1C2` gave an MIC of 2 µg/mL (microbial growth, broth dilution).
The MIC of `CC(=O)[O][Ag]=[c]1n(C)ccn1CC(O)c1ccccc1` (centres unmarked) is reported as 20 µg/mL (broth dilution; ATCC 19433; 18 h, 37 °C).
`CN(C)c1cc(CN2CCCCCC2)c(O)c2c1C[C@H]1C[C@H]3[C@H](N(C)C)C(O)=C(C(N)=O)C(=O)[C@@]3(O)C(O)=C1C2=O` has an MIC of 1 µg/mL (JH2-2(pMV158), Tet L efflux).
`CC[C@@H](C)[C@@H](NC(=O)[C@@H](CC(C)C)NC(=O)[C@@H](CCCCN)NC(=O)[C@@H](CC(C)C)NC(=O)[C@@H](CC(C)C)NC(=O)[C@H](NC(=O)[C@@H](Cc1c[nH]cn1)NC(=O)[C@@H](CC(C)C)NC(=O)[C@@H](CCCCN)NC(=O)[C@H](NC(=O)[C@@H](CCCCN)NC(=O)[C@@H](CCCCN)NC(=O)[C@@H](CC(C)C)NC(=O)[C@@H](CO)NC(=O)[C@@H](CCCCN)NC(=O)[C@@H](Cc1ccccc1)NC(=O)[C@H](NC(=O)[C@@H](CCCCN)NC(=O)[C@@H](CC(C)C)NC(=O)[C@@H](Cc1ccccc1)NC(=O)[C@@H](CO)NC(=O)[C@@H](CCCCN)NC(=O)[C@@H](Cc1c[nH]c2ccccc12)NC(=O)[C@@H](CCCCN)NC(C)=O)[C@H](C)O)[C@H](C)O)[C@H](C)O)C(=O)N[C@H](CO)C(=O)N[C@H](CO)C(N)=O` has an MIC of 16 µg/mL (ATCC 29212; 24 h, 37 °C).

A few entries again:
For `c1ccc(CN2CCOCCOCCN(CCCCCCCCCCN3CCOCCOCCN(CCCCCCCCCCN4CCOCCOCCN(Cc5ccccc5)CCOCCOCC4)CCOCCOCC3)CCOCCOCC2)cc1`, the MIC was 6 µM (microbial growth).
For `COCCNCc1cc(N(C)C)c2c(c1O)C(=O)C1=C(O)[C@]3(O)C(=O)C(C(N)=O)=C(O)[C@@H](N(C)C)[C@@H]3C[C@@H]1C2`, the MIC was 0.5 µg/mL (JH2-2(pMV158), Tet L efflux).
